Assay results pooled from the literature.
A part holds a random share of what one study measured.

Series 1
Target: RNA binding protein fox-1 homolog 2, RRM domain, GST-SBP tag (RBFOX2, Homo sapiens, UniProt O43251-10, residues 100-194)
Technique: RNA Bind-n-Seq
Form: RNA
Matrix: in vitro
Tested at: 365 nM
Setting: natural RNA segment, single round, ends assumed
Reference: no-protein control
Reading: higher = stronger binding
Measurement: RBNS enrichment (R)
Shared flanks, not repeated: GGGAGUUCUACAGUCCGACGAUC … UGGAAUUCUCGGGUGCCAA
Construct (chain): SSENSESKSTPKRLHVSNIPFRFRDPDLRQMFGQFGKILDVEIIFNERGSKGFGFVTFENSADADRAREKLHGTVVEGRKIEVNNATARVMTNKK
UACUACUAUUACCAAGUCGGCCGGAAACCCAAAAAAGUUAGCAGGCUGGGACCUGCCUGGGCCUGGACCUGGGCCCGAGCAGCUGGGGACUUCACUGUCCAUGGGUCCUA: 0.464
CCGGCCACAGGCAGAGGGAAAGGAACAGGUCAGAGGCGUUGCUCUGGCAGAGGCGGCUCGGGCUGCCCAUCGUGUUUCUGCGGGGUUGAGGUGGGCUCCCUUCUUUGUAG: 0.994
UCUGGGGGCAGAAAUAAAAUCCCCGCAGCCUACUGCACUUCUUGGCUCAACGGUGUGCCAGCUUCUGGGUCAUUCUAUGGGCAAAGAUGCUGCCUUAGUUCAGGUUUGUC: 0.397
UCUGAGUCUCUCAUUUCUUUAGGGAUGUGGAGAGAAGAUGAAGUAUAGCCGUGUGUAGUGUCGCCAGAGAAGGUGGAGUUUAAGAAUGGUCUCAGUGUUAUUAAUGAGAA: 1.19
CCCCCGCACCAUUGGUUGUGUAUCACUUUCACUUUACACUUGCAUGUUCUACUUGUCAGGGCUGGAACUAUUGUAUAGAAGAUAAUAUGAUUGUGACUUCUAGUUCUUUU: 4.59
GUUAAUCCUCUCCAGCAGGAUGCCCACUGGAUAUAUUAACAUCUGUAGGUAGUUGGAAGUGUAGAGAGAAGAGAAGGUAAGACUUCUCAGUGAAUGGAAGGAUGUCUUGA: 4.29
UUUGAGAGAAAUUAUUCAGAUUUUAUUUUUAUAUCCAUGGUAACAGAACCUAACCAAAAGGUUUCCCGUUCAGAAGUUUCCUUAGCUCUCGUCCCAAGCUAUUCGCUCAC: 0.346
CUUGGGAGUUGGCAAGAGGGAGGGAAGGAAGGAGAGCAAAAUCUUCGGAAGGUGUUUCUUGUACCUGAGGGAUCCUGCCCUGAAUCUCCAUAGUCUCCACUGUGAACUGA: 0.501
UGCAAAGUGCUUUAUGCUUUUUAAUAAUUGUUAGCUGUUUCUCACAUCAUUGUGAGUUAGAUCAGUAUUAUGACCGCUGUCUUAGGGAAGGCCUGGGAACAGGAGUGUGC: 0.487
UUCCUCCUGGAAAUUGACGAGGGGUGUCUUGGGCAGAGCUGGCUCUGAGCGCCUCCAUCCAAGGCCAGGUUCUCCGUUAGCUCCUGUGGCCCCACCCUGGGCCCUGGGCU: 0.214
CUCUGAGGUUGCUAGUGACAUUUGAAACAGUCCUGUGUGGUCACCAGAAAAUAAGCCAUUCCUCAUAUCAGUGGGAUAAACUCCUUGUACCUCUUGCUGUGUUUGGAUCC: 0.414
AGAACAAAAUAAAAGCUCGGCAUUGUAAUUUUUUUAAUGGACAAGUCUUAUGGAUACGAAGGGUACAUUUUUCAUAAUGAUUCCUUUAUAUUUUCACUUUGUGUCAUUGC: 0.54

Series 2
Target: TAR DNA-binding protein 43, full length, His tag (TARDBP, Homo sapiens, UniProt Q13148, residues 1-414)
Technique: RNA Bind-n-Seq
Form: RNA
Matrix: in vitro
Tested at: 20 nM
Setting: 6-mer, flanks averaged, single round
With: 150 mM KCl
Reference: input library
Reading: higher = stronger binding
Measurement: 6-mer enrichment (R)
GAGGCA: 1.64
AAUAUU: 0.658
ACUAGA: 0.663
UACUUC: 0.535
CAAUCA: 0.585
UAUUUA: 0.645
GUAGAG: 1.64
CCCGAC: 0.66
GUAUCG: 0.847
CUCCCU: 0.653
AACUUA: 0.589
CUACCG: 0.658
GGCGUC: 1.42
GACCCC: 0.714
AGAGUU: 0.722
GCGAAA: 0.994

Series 3
Target: Max dimerization protein 1, bHLH-zipper, MAX partner unstated (MXD1, Homo sapiens, UniProt Q05195, residues 56-136)
Technique: protein-binding microarray
Form: double-stranded DNA, one strand shown
Matrix: in vitro
Tested at: not given
Setting: k-mer, scored over probes, only values ≥0.25
Reading: higher = stronger binding
Measurement: E-score
Residues (chain): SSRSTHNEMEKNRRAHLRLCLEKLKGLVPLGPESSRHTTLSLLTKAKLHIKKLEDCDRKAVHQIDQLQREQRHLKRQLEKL
AGCATGTA: 0.337
CCACGCCG: 0.384
AGCGTGCG: 0.359
ACACACGA: 0.327
AAGACACG: 0.32
ATGCGAGG: 0.266
ACATGAGT: 0.319
GGGAATGA: 0.252
CCATGGGG: 0.274
CGCCCCAA: 0.287
CGCACGCC: 0.315
CCCACGAG: 0.39
AACACGCT: 0.367
AGGGAGGG: 0.275
AAAGCGTG: 0.39

Series 4
Target: Ras GTPase-activating protein-binding protein 1, full length (G3BP1, Homo sapiens, UniProt Q13283)
UniProt Q13283, sequence (whole entry, looked up): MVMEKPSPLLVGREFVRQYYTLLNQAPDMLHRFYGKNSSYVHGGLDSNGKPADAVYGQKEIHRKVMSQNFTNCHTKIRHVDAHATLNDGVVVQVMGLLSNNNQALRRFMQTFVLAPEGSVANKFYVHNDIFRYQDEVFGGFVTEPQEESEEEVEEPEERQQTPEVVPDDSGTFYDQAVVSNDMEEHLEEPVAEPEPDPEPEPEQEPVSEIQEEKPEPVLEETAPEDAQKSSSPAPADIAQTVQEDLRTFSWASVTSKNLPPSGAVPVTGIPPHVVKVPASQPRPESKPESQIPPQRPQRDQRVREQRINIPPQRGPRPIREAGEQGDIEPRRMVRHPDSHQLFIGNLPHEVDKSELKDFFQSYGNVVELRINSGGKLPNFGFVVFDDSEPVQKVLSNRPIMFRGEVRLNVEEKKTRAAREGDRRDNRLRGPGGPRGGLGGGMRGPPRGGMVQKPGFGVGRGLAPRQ
Technique: RNA Bind-n-Seq
Form: RNA
Matrix: in vitro
Tested at: 200 nM
Setting: whole 134-nt RNA, ends assumed
With: 150 mM LiCl
Reference: input library
Reading: higher = stronger binding
Measurement: log2 enrichment
Library: 7-deaza-guanosine replaces G
Shared flanks, not repeated: GGGAGUUCUACAGUCCGACGAUC … UGGAAUUCUCGGGUGUCAAGG
AGUCCUGUGCUACACAUCGUAUGUACCGAAUCGGGGAGGGGAAAGGGGAAAAAGGGGAAAGUAUUAUGUUACGCCGUUCGGAUCUGCACU: 0.504
CACAGACUACACGCACCCACACAGACACAGAGGGAAGGGGUUGGGAUGGGGACAGGGUGCACAGCAGGGCGGGGUAGGACCCCAGCCCCU: 0.677
ACCAUGCAGGUGGGCAUCUUUGGGAAGUGGGGCAAGGGGGGGAUAGGGAGGGGGGUAACACUUUGGGAUCAGGUGGUCCCAGGUCGUUUC: 0.455
UGUGCUACACAUCGUAUGUACCGAAUCGGGGUUUUUUUGGGUUUUUUUGGGGUUUUUUUGGGAAAGUAUUAUGUUACGCCGUUCGGAUCU: 1.57
AAGUCCUGUGCUACACAUCGUAUGUACCGAAUCGGGGCCCCGGCCCCGGGGCCCCGGAAAGUAUUAUGUUACGCCGUUCGGAUCUGCACU: -0.152
UAACUUUAGAGGAGGAUCUGAUGGAUAUGGCAGUGGAGGUGGAUUUGGGGAUGGCUAUAAUGGGUAUGGAGGAGGACCUGGAGGUGGCAA: -0.0786
CUGUGCUACACAUCGUAUGUACCGAAUCGGGGCCCCCCGGGCCCCCCGGGGCCCCCCGGGGAAAGUAUUAUGUUACGCCGUUCGGAUCUG: -1.09
UCAUGUGGAUGAAGCAGAAAAAGAAGCUCAGAAGAAGCCAGCUGAAUCUCAAAAAAUAGAGCGUGAAGAUGCCCUGGCUUUUAAUUCAGC: -2.21
CAAGUCCUGUGCUACACAUCGUAUGUACCGAAUCGGGAAAGGGAGGGUUUUUGGGAAAGUAUUAUGUUACGCCGUUCGGAUCUGCACUUC: -0.344
AAGUCCUGUGCUACACAUCGUAUGUACCGAAUCGGGGCCCCGGGGCCCCGGCCCCGGAAAGUAUUAUGUUACGCCGUUCGGAUCUGCACU: -2.38
CAAGUCCUGUGCUACACAUCGUAUGUACCGAAUCGGGAGGGUUUUUGGGAAAGGGAAAGUAUUAUGUUACGCCGUUCGGAUCUGCACUUC: 0.372

Series 5
Target: Sal-like protein 4, full length isoform B (SALL4, Homo sapiens, UniProt Q9UJQ4-2, residues 1-616)
Technique: universal PBM
Form: double-stranded DNA, one strand shown
Matrix: in vitro
Tested at: not given
Setting: 8-mer, flanks averaged, mean of replicates
Reading: higher = stronger binding
Measurement: E-score
ACCAGGGG: -0.187
GGGCCCCA: -0.313
AGATAGAG: 0.0799
CTGTCAAA: 0.0059
CCTAAGTC: -0.256
CACGCGAA: -0.0497
AATAAAAG: 0.27
GAGAGATA: 0.143
CTCTCCGA: -0.217
CGCGTGGA: -0.209
ACAACAGC: -0.0242
GGAAACAC: -0.0917
ATAGGCAA: 0.175
CACCAAGC: -0.145
AGAGGGCA: -0.12
AAAGCCGC: -0.185
GACCTCGC: -0.245
CAGACGTA: 0.0391
AGCGATCC: -0.181
AGGGTAGG: -0.214

Series 6
Target: PABPC1L2, full length, GST fusion (mouse, UniProt A0ABA7IW68)
Technique: RNAcompete
Form: RNA
Matrix: in vitro
Tested at: 20 nM
Setting: 7-mer, probes averaged, single round
Reference: mean of 7-mers
Reading: higher = stronger binding
Measurement: 7-mer Z-score
Residues (chain): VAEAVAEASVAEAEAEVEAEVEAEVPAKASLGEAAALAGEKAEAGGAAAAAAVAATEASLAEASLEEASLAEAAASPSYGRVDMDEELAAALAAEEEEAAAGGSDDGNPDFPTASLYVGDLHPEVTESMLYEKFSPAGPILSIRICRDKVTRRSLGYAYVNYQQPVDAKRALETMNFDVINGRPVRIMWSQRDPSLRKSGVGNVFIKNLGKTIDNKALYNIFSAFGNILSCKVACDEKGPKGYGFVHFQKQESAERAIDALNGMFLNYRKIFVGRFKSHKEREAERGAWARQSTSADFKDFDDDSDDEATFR
GUAGAGA: 0.0442
GCCGGCG: -0.349
UCACCGA: -0.0681
UACCUUG: -0.329
CACAGGC: 0.108
GGCUAAU: -0.141
CGCCAAA: 0.238
AACUGCG: 0.000733
AAAACUA: 4.1
GGUGUCC: -0.146
AAGGUUG: 0.135
UGAUGGG: 0.0678
AUGCUUU: -0.141
UCCCCUA: -0.362
UAGCGUC: -0.302
AAUGAAG: 0.3
CAUGUUG: -0.238
UUACUCA: -0.182
CCCUCCC: -0.387
GCUUCUG: -0.407
